Published values of several laboratories.
Numbered parts are unrelated; each lists some results of a single study. Changes are numbered by the printed parent chain.

Set 1
Target: RNA binding protein fox-1 homolog 2, RRM domain, GST-SBP tag (RBFOX2, Homo sapiens, UniProt O43251-10, residues 100-194)
Technique: RNA Bind-n-Seq
Molecule type: RNA
Medium: in vitro
Concentration: 365 nM
Notes: natural RNA segment, single round, ends assumed
Baseline: no-protein control
Direction: higher = stronger binding
Constant ends, left off below: GGGAGUUCUACAGUCCGACGAUC … UGGAAUUCUCGGGUGCCAA
Target sequence (chain): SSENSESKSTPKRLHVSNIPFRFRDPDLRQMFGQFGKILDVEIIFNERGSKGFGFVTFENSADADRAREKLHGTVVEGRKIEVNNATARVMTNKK
Strand	RBNS enrichment (R)
GCUUCUGUUCAGGCUCAUGCCAAGCUUGACCGGAUUGGGAGAACUGGACUCAGUUUAACCUGUAUCCACUCUCCUUAGCCAAAGUGUGCGUCUGUCGAAAGCUGAAGUGC	0.96
CACAUUUUACCACGCGGCCAUACUUGCAGAAUGCAGACCCUAGUGGGCUGUACUGUAUGCACUUUGAUGAAGACGUGAAAAGAAUCUGUUGUACUUUUUAUUCAAUCUGU	0.274
GGUGCCCACUGGUGUCCCAUGGAAUCCACUCGGGUUGAAAUGUGGAUCUCUCCAUGGGACUCUUUAACCAGGCUAGAACAGCUGUCUGCCAAAGAUACAAGAAUAUGCAA	1.56
UUGGAAACUGCUUUAUGAAGAAACUGCUUUAUGAAAUAAGCAAAAUUCUCAAGUGCACAGAUACUAGCAGUUAUGACAGUAAUACAGCGUCUUCUGUGACCCUCACUACC	0.38
GGUCUGGGGUAACAGCCUCUUCCCAGCACCCACCUGCCAGCCCUGCUUGCCUGGCCCUGUCCUGGACCCAGCUUUGCUAGGUCUCCUUGGAAACCAGGCCUGGGCCUCAA	0.683
GUAGUCUUAAAACUCUAAAACAGUUGUACUGCUUCCAAGCAGCAGUAUUUAUAGUAACGUAAGCUAUUAAUGCUAACUCUUGCAUGUCAAGAAACAUUAGUCUUAGGAAU	0.399
AUCUCUUGGCCCGCCGCGUGGACCCUCCCUUCAGGCCAAGUCUGCAAUCAGAAGAGGAUGUGAGCCAGUUUGAUGCACGAUUCACACGGCAGACGCCGGUAGAUAGUCCA	0.772
GACCUUGUAUUUAUGAGGCCUCUGUGAGGCCAGCCCCCACCUUCCUCUUUCCCACCUGUCCCAGGACCAGAAUCCCAGGGACAGAGGACUGGGUAGCAGGUUCCUUCUGU	0.294
AACAGGGGUUAAGUAUUAAAUACACGAAGUUACAUUUUUGUUCAUGUUUCAUUGUCCAGAAAGCAGCAGGAAACUAUUCAGUUGUGAUCAAGCAGGAAAAAAGAAACACC	0.264
AUUUUUAUUUAUUAAAUAUUUGGGGUUUUGGUUUUAAAGCCAGAAUUACGGCUAGCACCUAGCAUUUCAGCAGAGGGACCAUUUUAGACCAAAAUGUACUGUUAAUGGGU	0.713
UGAGUGAUUUGGACGACCUGUUAGGGUCUCAGUAUGGAAGGAUUUGUAGUGUUUUUAGUGUUCAUUCAUCCUAUAUUUUUAUUCUCAGAUUCAAAGAAAGAGCAACUACU	0.83
CUAGAACCUCUCCUUGCCACAGAGAUGGAAAGGCAUCAGUGCUACACCUGGACUUGGCUUCCUGAGAAAGAUUGUUUUUUAACCUUUGGCUUUCUUCAUUCAGUGUGCCA	0.353

Set 2
Target: ABI1, truncated, D143A, DHFR fusion (Arabidopsis thaliana)
Technique: DHFR PCA, deep sequencing
Medium: yeast
Notes: methotrexate growth selection, single substitutions
Together with: (+)-ABA 200 µM
Baseline: wild-type fitted maximum
Direction: higher = stronger binding
Parent: PYL1, truncated, DHFR fusion (Arabidopsis thaliana); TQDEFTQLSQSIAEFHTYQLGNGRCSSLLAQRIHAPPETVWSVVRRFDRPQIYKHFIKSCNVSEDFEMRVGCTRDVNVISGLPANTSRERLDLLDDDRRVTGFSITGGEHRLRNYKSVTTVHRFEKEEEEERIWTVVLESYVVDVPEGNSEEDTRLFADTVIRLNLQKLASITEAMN; partner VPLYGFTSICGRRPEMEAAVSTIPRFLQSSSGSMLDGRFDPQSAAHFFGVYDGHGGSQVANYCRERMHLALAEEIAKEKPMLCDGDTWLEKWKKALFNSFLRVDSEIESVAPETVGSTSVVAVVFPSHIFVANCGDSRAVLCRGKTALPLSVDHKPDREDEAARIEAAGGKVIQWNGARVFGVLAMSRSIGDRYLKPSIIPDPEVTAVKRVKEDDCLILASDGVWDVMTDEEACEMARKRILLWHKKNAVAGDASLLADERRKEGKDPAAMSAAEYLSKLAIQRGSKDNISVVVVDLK
Substitution	relative binding score
W134S	110%
R123T	109%
W134T	103%
V43N	41.3%
I162G	7.17%
G81K	50.1%
D97I	88.8%
S59H	93.6%
V136Y	92.6%
S59T	99.1%
R46D	68.4%
R132W	91.2%
W41H	11.9%
S171E	112%
C25G	52.7%

Set 3
Target: CCNE2, cyclin fold, Cln2 fusion (human)
Technique: yeast growth competition, sequencing
Medium: yeast
Notes: strong parent motif
Baseline: not given
Direction: higher = stronger binding
Parent: PKN2 docking peptide (human); VSAVRKLDFSDTM
Substitution	normalised enrichment score
VSAVRKLDFSGTM [D11G]	5.3
VSAVRKQDFSDTM [L7Q]	0.257
VSAVRILDFSDTM [K6I]	3.19
VSAVRKLFFSDTM [D8F]	3.01
VSAVRKLDFEDTM [S10E]	3.96
VSAVRKLDFDDTM [S10D]	4.27
VSAVRKLDFSQTM [D11Q]	4.81
VGAVRKLDFSDTM [S2G]	5.01
VSAVRDLDFSDTM [K6D]	0.0138
VSANRKLDFSDTM [V4N]	1.22
VSAVAKLDFSDTM [R5A]	0.186
VSAVRKADFSDTM [L7A]	-0.0257
VSAVRKLDFSCTM [D11C]	5.1
VSAVRSLDFSDTM [K6S]	1.68
VSAVRKLDFGDTM [S10G]	5.07
VSAVRNLDFSDTM [K6N]	1.11
VSMVRKLDFSDTM [A3M]	1.43
VSAVRKLRFSDTM [D8R]	2.45
VSAVIKLDFSDTM [R5I]	0.335
VSAVRKLDFSPTM [D11P]	4.53
VSAFRKLDFSDTM [V4F]	2.03
VSAVRKLPFSDTM [D8P]	0.892
VSAVFKLDFSDTM [R5F]	0.0118
VSAVRKLDFWDTM [S10W]	2.92
VSAVRKLDFMDTM [S10M]	3.5

Set 4
Substance: PhoQ, residues 284 288 289 292 302 303 TNSAEL
Technique: Sort-seq
Measured: YFP reporter
Medium: E. coli
Notes: PhoQ-PhoP variant library
Together with: 10 µM Mg2+
Baseline: high Mg2+ state
Direction: higher = stronger signaling
target	fold induction
PhoP, residues 12 14 15 18 19 TQCLL (Escherichia coli, UniProt P23836)	1.83
PhoP, residues 12 14 15 18 19 ICWRQ (Escherichia coli, UniProt P23836)	1.48
PhoP, residues 12 14 15 18 19 VHTVL (Escherichia coli, UniProt P23836)	15.8

Set 5
Target: Ras GTPase-activating protein-binding protein 1, full length (G3BP1, Homo sapiens, UniProt Q13283)
Chain of UniProt Q13283 (whole entry, looked up): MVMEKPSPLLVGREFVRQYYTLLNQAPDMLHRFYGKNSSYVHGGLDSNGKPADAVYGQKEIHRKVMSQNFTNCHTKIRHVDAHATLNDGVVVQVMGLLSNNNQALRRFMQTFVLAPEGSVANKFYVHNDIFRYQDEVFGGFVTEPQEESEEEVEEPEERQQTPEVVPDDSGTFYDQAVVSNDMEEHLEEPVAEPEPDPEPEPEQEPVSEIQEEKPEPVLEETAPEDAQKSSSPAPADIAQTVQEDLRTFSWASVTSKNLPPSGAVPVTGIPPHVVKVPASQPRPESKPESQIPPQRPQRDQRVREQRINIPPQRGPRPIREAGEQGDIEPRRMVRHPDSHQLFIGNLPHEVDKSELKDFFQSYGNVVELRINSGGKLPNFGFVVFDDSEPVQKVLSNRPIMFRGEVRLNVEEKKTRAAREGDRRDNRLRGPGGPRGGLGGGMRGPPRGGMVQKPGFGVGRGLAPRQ
Technique: RNA Bind-n-Seq
Molecule type: RNA
Medium: in vitro
Concentration: 200 nM
Notes: whole 134-nt RNA, ends assumed
Together with: 150 mM LiCl
Baseline: input library
Direction: higher = stronger binding
Library: 7-deaza-guanosine replaces G
Constant ends, left off below: GGGAGUUCUACAGUCCGACGAUC … UGGAAUUCUCGGGUGUCAAGG
Strand	log2 enrichment
UCAUUCUAUACAGCCUUUUGUUUCAUUAGGAUCAGGCAGCUAGAGACAUGAAGAGGCUUGAAGAAAAGGACAAGGAAAGAAAAAACGUAA	-2.1
AGUCCUGUGCUACACAUCGUAUGUACCGAAUCGGUUUUUUUGGUUUGGAAAAAAAGGAAAGUAUUAUGUUACGCCGUUCGGAUCUGCACU	-2.17
AGUCCUGUGCUACACAUCGUAUGUACCGAAUCAAAUUUUUAAACCCAAAUUUUUAAAAAAGUAUUAUGUUACGCCGUUCGGAUCUGCACU	-1.73
UAACUUUAGAGGAGGAUCUGAUGGAUAUGGCAGUGGACGUGGAUUGGGGGAUGGCUAUAAUGGGUAUGGAGGAGGACCUGGAGGUGGCAA	-0.0382
ACCAUGCAGGUGGGCAUCUUUGGGAAGUGGGGCAAGGGGGGGAUAGGGAGGGGGGCAACACUUUGGGAACAGGUGGUCCCAGGUCGUUUC	0.189
GUCCUGUGCUACACAUCGUAUGUACCGAAUCGGGAAAAAGGGUUUUUGGGUUUUUGGGAAAGUAUUAUGUUACGCCGUUCGGAUCUGCAC	-2.33
UCAAGUCCUGUGCUACACAUCGUAUGUACCGAAUCGGUUUGGAAAAAAAGGAGGAAAGUAUUAUGUUACGCCGUUCGGAUCUGCACUUCC	-0.307
CCUCAAGUCCUGUGCUACACAUCGUAUGUACCGAAUCGGUUUUUGGAGGUGGAAAGUAUUAUGUUACGCCGUUCGGAUCUGCACUUCCAG	0.0567
CAAGUCCUGUGCUACACAUCGUAUGUACCGAAUCGGAAAAAGGAAAGGUUUUUGGAAAGUAUUAUGUUACGCCGUUCGGAUCUGCACUUC	-0.969
UCCUGUGCUACACAUCGUAUGUACCGAAUCAAAUUUAAACCCCCCCAAACCCCCCCAAAAAAGUAUUAUGUUACGCCGUUCGGAUCUGCA	-0.0096
UAACUUUAGAGGAGGAUCUGAUGGAUAUGGCAGUGGACGUGGAUUUGGGGAUGGCUAUAAUGGGUAUGGAGGAGGACCUGGAGGUAGCAA	-0.371

Set 6
Target: Centromere-binding protein 1, full length, N-terminal tag (CBF1, Saccharomyces cerevisiae, UniProt P17106, residues 1-351)
Chain of UniProt P17106 (whole entry, looked up): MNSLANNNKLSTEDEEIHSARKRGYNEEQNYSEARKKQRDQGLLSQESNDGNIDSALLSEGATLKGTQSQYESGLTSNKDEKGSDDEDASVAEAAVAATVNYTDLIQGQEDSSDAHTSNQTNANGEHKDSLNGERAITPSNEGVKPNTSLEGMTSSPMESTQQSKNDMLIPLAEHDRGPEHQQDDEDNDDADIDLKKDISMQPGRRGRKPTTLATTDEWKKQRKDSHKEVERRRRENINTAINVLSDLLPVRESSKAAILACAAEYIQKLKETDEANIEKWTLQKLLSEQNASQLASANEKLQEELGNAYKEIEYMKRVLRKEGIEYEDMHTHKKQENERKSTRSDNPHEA
Technique: protein-binding microarray
Molecule type: double-stranded DNA, one strand shown
Medium: in vitro
Concentration: 0.8 µM
Notes: whole 60-bp probe, no competitor
Direction: higher = stronger binding
Constant ends, left off below: … GTCTTGATTCGCTTGACGCTGCTG
Strand	fluorescence intensity [a.u.]
GAATGTCATAGTTGGCACGGGACAGAATACGTTTAG	1160
CTACACAGTTGTAGTCACGTGCGCGCCATGCTGTTC	19400
CTAATTTGTTCCGATCAGTTGAAGGTCATCAACTTC	541
TGTACGAAGCTATTTTTGGTGGTTATAGTAGTTAGG	505
GAATTGATAGTACACGTGATTGTATACCCAATGTAG	11500
CTAATTCGAGACCTGTCCGTGATGTCGAGGACATTC	543
GAAGCTGATGCTGATGCTGATGTTGTGCTATATTAG	504
CTAGCTAAATTTAAGGGCGTGATCTCAGAACTCTTC	1200
GAAAAATGAAATCTCAACGTGGTTGTAAGAGTTTAG	524
CTACGATAGCTTTATTGCGTGATCTTCCCTTACTTC	572
GAAAAATGTATCATGCACGTATGACAGAGAGAATAG	682
CTATTGGTCATATTAATCATGACCAATATAATATTC	553
GAATATTCCCATAATAACGTGCAAAAGTCCCTATAG	636
